Published values collected from several papers.
Every numbered part comes from another study and shows a few of its results, in no order.

Study 1 — method: protein-binding microarray; form: double-stranded DNA, one strand shown; matrix: in vitro; concentration: 250 nM; notes: 60-bp whole probe; with: salmon DNA 0.4 mg/ml; reference: random background probes; reading: higher = stronger binding; constant ends, left off below: GCCTAGCAC … GTCTTGATTCGCTTGACGCTGCTG
Target: Interferon regulatory factor 5, full length, phosphomimetic (IRF5, Homo sapiens, UniProt Q13568-2, residues 1-514, K96S/S451D/S453D/S456D/S462D)
Strand	log fluorescence [z-score]
CCCACTTTCAGTTCTCCCTTGTGCTAG	7.17
TAACTAATATTAAATATGTAGTGCTAG	0.581
TTAGGTCTCCTCTTCCTTTAGTGCTAG	-0.14
TTAGATCTCAGTTTCGCTTAGTGCTAG	7.05
GACGATTTCAGCTTCGAGACGTGCTAG	0.49
ATAACCTTGAACTTCGGCCTGTGCTAG	0.091
TTAGGTCTCCTTATCCTTTTGTGCTAG	0.109
TTAGGTATCGACACTGGCTTAGTGCTA	2.25
TCACATTGCCTGTTTTTCACTGTGCTA	1.17
GACGGTTTAGACTATCGGGACGTGCTA	1.38
AGGCTTTTTTTTTTTTTTTTGTGCTAG	0.567
TTAGATCTCAATATCGATTAGTGCTAG	3.86
TTCGATTTCAGTATCGATTAGTGCTAG	8.67
TTCTCTTTTATTTTTTTTATGTGCTAG	1.78
TTAGGTCTCGGAATCGGTTAGTGCTAG	0.497
AGCCGAACAGCAATCGGATGGTGCTAG	-0.332
TTGGGTTTCGGACTGGGTTAGTGCTAG	4.14
TCAAGCCTCTGCATTCCCACTGTGCTA	-0.328
TTAGATTTCCGGTTTCGATTAGTGCTA	8.4

Study 2 — method: protein binding microarray; form: double-stranded DNA, one strand shown; matrix: in vitro; concentration: not given; reference: not given; reading: higher = stronger binding
Target: Histone acetyltransferase KAT6A, winged helix 1, GST fusion (KAT6A, Homo sapiens, UniProt Q92794, residues 1-85)
Notes: 8-mer, flanks averaged, mean of 2 arrays, mostly near background
Residues (chain): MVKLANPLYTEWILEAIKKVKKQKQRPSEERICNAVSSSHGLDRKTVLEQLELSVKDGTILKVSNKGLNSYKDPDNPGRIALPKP
Strand	E-score
AGTCCTGG	-0.217
CTCATCTC	-0.14
GCCGAAGC	0.265
ATTGCATG	-0.202
CACGTTTC	-0.129
CAATCTCG	-0.176
AGCGCCAG	0.144
GACTGTTA	-0.0112
ATGAAAAT	-0.226
CGAGACGC	0.153
CTTGTGCA	-0.0418
TAAGTAGA	-0.163
GTCCCGCA	0.324
AGGTTGAG	-0.263
ATGATGAG	-0.233
ATAAACAC	-0.019
GTTACCTA	-0.165

Study 3 — method: aptamer microarray, sandwich; form: DNA with 2'F-ANA; matrix: in vitro; concentration: 200 nM; with: Cy3 exosite-II aptamer, 400 nM; reading: higher = stronger binding; strand: GGTTGGTGTGGTTGG
Target: Prothrombin, mature alpha-thrombin (F2, Homo sapiens, UniProt P00734)
Notes: whole 15-mer aptamer, many near background
Modification	mean fluorescence intensity [a.u.]
2'F-ANA at 2 3 4 6 7 9 11	428
2'F-ANA at 2 7 8 12 13 14	226
2'F-ANA at 2 4 6 7 9 10 14	73
2'F-ANA at 2 3 5 7 9 14	73.8
2'F-ANA at 1 2 4 9 10 12 14	90.4
2'F-ANA at 3 5 6 8 11 12 13	173
2'F-ANA at 1 2 6 10 11 13 15	55
2'F-ANA at 1 3 4 5 6 7 8 11 12 13 15	75.3
2'F-ANA at 4 5 8 9 10 12	50.1
2'F-ANA at 3 6 7 9 14	442
2'F-ANA at 4 7 9 11 12 13 14 15	92.7
2'F-ANA at 1 5 7 9 11 12 13	70.7
2'F-ANA at 1 4 5 6 7 8 9 10 12 13 15	46.7
2'F-ANA at 1 5 6 7 10 11 13	53.7
2'F-ANA at 1 4 6 7 9 11 12	170
2'F-ANA at 3 4 6 9 14 15	247
2'F-ANA at 2 5 7 9 10 11 14 15	47.1
2'F-ANA at 1 2 4 5 6 7 8 11 12 14	51.6
2'F-ANA at 2 5 8 9 13 14 15	51.2
2'F-ANA at 2 3 4 5 9 10 12 13 14	321
2'F-ANA at 2 7 9 10 11 12 13 14	84.5
2'F-ANA at 2 4 6 7 9 10 11 12 14 15	59.3
2'F-ANA at 2 3 8 9 11	804
2'F-ANA at 3 5 6 8 9 11 14 15	54.9

Study 4 — method: protein-binding microarray; form: double-stranded DNA, one strand shown; matrix: in vitro; concentration: 0.8 µM; notes: whole 60-bp probe, no competitor; reading: higher = stronger binding
Target: Centromere-binding protein 1, full length, N-terminal tag (CBF1, Saccharomyces cerevisiae, UniProt P17106, residues 1-351)
Chain of UniProt P17106 (whole entry, looked up): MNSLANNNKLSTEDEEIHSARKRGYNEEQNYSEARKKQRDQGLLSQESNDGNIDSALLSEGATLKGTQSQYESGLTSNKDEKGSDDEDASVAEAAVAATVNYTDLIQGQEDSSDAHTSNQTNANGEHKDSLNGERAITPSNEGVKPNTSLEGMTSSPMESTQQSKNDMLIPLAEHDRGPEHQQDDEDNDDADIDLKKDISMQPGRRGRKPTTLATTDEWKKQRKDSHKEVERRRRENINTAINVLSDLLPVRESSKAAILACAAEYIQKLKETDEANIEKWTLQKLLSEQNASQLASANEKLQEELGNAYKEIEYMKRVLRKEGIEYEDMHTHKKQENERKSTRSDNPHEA
Strand	fluorescence intensity
TGTACGAAGCTATATGTGGCAATTATAGTAGTTAGGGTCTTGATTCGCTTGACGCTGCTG	519 a.u.
CTACTCACACCGCCGCACGCGAGTGAGGTTGAATTCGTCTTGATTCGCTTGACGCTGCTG	485 a.u.
TGTACGAAGCTATAGCACGTGCATATAGTAGTTAGGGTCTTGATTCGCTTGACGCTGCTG	11400 a.u.
TGTACGAAGCTATACCACGTAGATATAGTAGTTAGGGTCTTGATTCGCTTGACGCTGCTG	561 a.u.
CTATTCTCTGAAAAAAACGTGTAGTTTCATGACTTCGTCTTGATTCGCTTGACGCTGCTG	634 a.u.
CTAATTTTCGAGGGTCACGTCGTGACTCATATGTTCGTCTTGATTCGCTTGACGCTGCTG	1670 a.u.
GAACGCTGTTACCTCCAGGTGATTGCTGTCTTTTAGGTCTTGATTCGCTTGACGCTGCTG	504 a.u.
CTACATATATATATACACGTTGGTACGATATGCTTCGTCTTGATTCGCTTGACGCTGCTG	757 a.u.
CCTAACTACTATAGTGATGTTGTATAGCTTCGTACAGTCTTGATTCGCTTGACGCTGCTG	507 a.u.
TGTACGAAGCTATCTTGCATGACTATAGTAGTTAGGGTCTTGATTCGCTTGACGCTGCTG	565 a.u.
GAACATTTGCGCGACCACGTGACCCGCTGCGGCTAGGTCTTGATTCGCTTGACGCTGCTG	32000 a.u.
CTAAACGGCTATTATCACGCTATGGAAGAACCCTTCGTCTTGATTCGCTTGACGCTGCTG	583 a.u.
GAAAATATCTTTTGCAACATCAGAAGTGTCCGTTAGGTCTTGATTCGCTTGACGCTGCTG	529 a.u.
GAATCCGGAGGGTGTCACCCCCCCTCTCTCAACTAGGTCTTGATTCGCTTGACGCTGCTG	503 a.u.
GAACGATGACCCTATTGCAGGTGATCCTGATGTTAGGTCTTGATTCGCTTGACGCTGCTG	732 a.u.
CTATTGTCTTTTCATGTGAGCAGAACTAAAATCTTCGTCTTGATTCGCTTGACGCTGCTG	715 a.u.
GAAGAATTTTGCTTACTCGTGCTGCCGGGGACATAGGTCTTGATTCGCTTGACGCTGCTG	592 a.u.
GAATATCCTAACCACCACCTCAAAAAAAAAAAATAGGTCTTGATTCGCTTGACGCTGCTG	561 a.u.
GAATACAATTTTGCTCACGTTTTAAGCCGCCCATAGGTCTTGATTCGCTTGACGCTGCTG	893 a.u.
